Published values gathered from unrelated publications.
Each line is one published result; not all experiments were run side by side. “And” joins repeats or separate records; there may be more than shown. ± marks the error that the study gave.
Sequence of UniProt Q9UKI8 (whole entry, looked up): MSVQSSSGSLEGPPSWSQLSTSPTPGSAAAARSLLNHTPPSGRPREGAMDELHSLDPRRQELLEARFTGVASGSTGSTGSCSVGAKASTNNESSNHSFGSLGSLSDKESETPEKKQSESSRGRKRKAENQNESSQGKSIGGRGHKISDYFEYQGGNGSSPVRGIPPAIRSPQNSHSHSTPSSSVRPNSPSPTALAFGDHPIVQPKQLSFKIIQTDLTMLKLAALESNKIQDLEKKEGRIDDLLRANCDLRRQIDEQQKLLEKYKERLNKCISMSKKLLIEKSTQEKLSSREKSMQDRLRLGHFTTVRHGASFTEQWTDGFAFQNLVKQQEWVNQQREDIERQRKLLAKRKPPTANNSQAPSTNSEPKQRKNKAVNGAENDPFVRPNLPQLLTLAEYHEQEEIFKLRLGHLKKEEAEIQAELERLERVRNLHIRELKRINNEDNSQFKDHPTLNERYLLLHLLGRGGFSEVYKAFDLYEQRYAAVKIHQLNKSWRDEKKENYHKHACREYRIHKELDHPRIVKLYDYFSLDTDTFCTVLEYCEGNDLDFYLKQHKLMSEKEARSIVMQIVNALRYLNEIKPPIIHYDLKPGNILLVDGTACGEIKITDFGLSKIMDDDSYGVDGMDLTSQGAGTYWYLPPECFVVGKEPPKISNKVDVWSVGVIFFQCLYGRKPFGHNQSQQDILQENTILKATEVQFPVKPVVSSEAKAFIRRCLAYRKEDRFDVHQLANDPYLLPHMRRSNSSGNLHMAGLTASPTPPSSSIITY

For `Cn1cc(-c2ccc(-c3cncc(Cl)c3N3CCC4(CCNC4=O)CC3)cc2)cn1`, “log2 fold change” read 2.16 (COLO 205; gene expression, microarray, refers to: DHRS12 mRNA; concentration not given, 6 h; reference: untreated cells).
`CC[C@@H]1[C@H](F)C(=O)N[C@@H]1COc1nccc2cc(C(N)=O)c(OC)cc12` gave an IC50 of 1900 nM (TLK1 (Homo sapiens, UniProt Q9UKI8); ATP-site probe binding, inhibitor, ActivX ATP probe profiling; THP-1 cell lysate; probe site Lys1).
For `Cc1c(C(=O)O)ccc2c3n(nc12)[C@@H]1[C@H](C3)N(CC2CC2)[C@@]2(C(=O)Nc3cc(Cl)ccc32)[C@H]1c1cccc(Cl)c1F`, the concentration was 0.032 µM (athymic nude mice, female, sample A PDX subcutaneous, subcutaneous tumour; oral, 1 mg/kg, 24 h).
`C=C(NC(=O)c1nccc(OC)c1O)C(=O)O[C@@H](C)[C@H](O)[C@@H](Cc1ccccc1)C(=O)O` has a concentration of 4 ng/g (lactating goat, female, kidney; oral, 21.3 mg/kg/day, 5 days, phenyl-labelled).
For `O=C(N[C@H](Cc1c[nH]c2ccccc12)C(=O)Nc1ccncc1)c1ccc(-c2ccc(F)c(C(F)(F)F)c2)cc1F`, the concentration was 13 µM (Swiss Webster mouse, female, lung; oral, 50 mg/kg, 2 h, 20% HPβCD vehicle).
Under “structural aberrations per 100 cells”, `COc1cccc(-c2n[nH]c(SCc3ccccn3)n2)c1OC` is recorded as 3 (primary human lymphocytes; 0.25 mg/mL, 3 h, together with: rat liver S9).
With `CN(C(=O)n1cnc(-c2cccnc2)c1)[C@H]1CC[C@H](O)CC1` the concentration was 35.3 ± 5.3 ng/g (Wistar rat, medulla oblongata; oral, 10 mg/kg/day of BIA 10-2474, 4 h, repeated 5 days).
For `O=C(N[C@H](Cc1c[nH]c2ccccc12)C(=O)Nc1ccncc1)c1ccc(-c2cc(C(F)(F)F)ccc2F)cc1F`, the concentration was 6.37 µM (Swiss Webster mouse, female, muscle; oral, 50 mg/kg, 2 h, 20% Kolliphor vehicle).
`CCc1c(-c2ccccc2)c(-c2ccccc2)nn1-c1ccccc1-c1cccc(OCC(=O)O)c1` gave a concentration of 163 ng/mL and 204 ng/mL (Sprague-Dawley rat, large intestine homogenate; oral, 10 mg/kg, 1 h).
`Cc1cc(Nc2ccc(S(F)(F)(F)(F)F)cc2)n2nc(C(C)(F)F)nc2n1` — result for “patients with sinus bradycardia”: 15.4% (Plasmodium falciparum; P. falciparum malaria patients; oral, 400 mg).
The concentration of `Cc1cc([C@@H](C)Nc2ccccc2C(=O)O)c2nc(N3CCC(F)(F)CC3)c(C#N)c(=O)n2c1` is reported as 56600 ng/mL (NOD-SCID mice, HCC1954 xenograft; intraperitoneal, 120 mg/kg once daily, 1 h).
`CC(C)C[C@H](NC(=O)C[C@H](O)[C@H](CC(C)C)NC(=O)[C@H](Cc1c[nH]cn1)NC(=O)CNC(=O)[C@@H](NC(=O)[C@H](C)NC(=O)[C@H](Cc1c[nH]c2ccccc12)NC(=O)[C@H](CCC(N)=O)NC(=O)[C@@H](Cc1ccccc1)NC(=O)COCCOCCNC(=O)CCC(C(=O)O)N1CCN(CC(=O)O)CCN(CC(=O)O)CCN(CC(=O)O)CC1)C(C)C)C(N)=O` (stereo partly shown) [lutetium-177 labelled] gave a tissue uptake of 0.53 ± 0.15 %ID/g (female BALB/c nu/nu mice, kidneys; intravenous, 100 pmol, 48 h, together with: PA 300 µg).
The concentration of `O=C(N[C@H](Cc1c[nH]c2ccccc12)C(=O)Nc1ccncc1)c1ccc(N2CCN(c3ccc(F)cc3F)CC2)cc1F` is reported as 14.5 µM (Swiss Webster mouse, female, lung; oral, 50 mg/kg, 2 h, 20% HPβCD vehicle).
With `NCc1cc2c(cc1F)C(=O)N(C1CCC(=O)NC1=O)C2` (stereo not shown) the concentration was 10.9 µM and 9.1 µM (LC-MS/MS; phosphate buffer without enzyme; 10 µM, 0 h, pH 7.4).
With `CN[C@H](CC(C)C)C(=O)N[C@H]1C(=O)N[C@@H](CC(N)=O)C(=O)N[C@H]2C(=O)N[C@H]3C(=O)N[C@H](C(=O)N[C@H](C(=O)O)c4cc(O)cc(O)c4-c4cc3ccc4O)[C@H](O)c3ccc(c(Cl)c3)Oc3cc2cc(c3O[C@@H]2O[C@H](CO)[C@@H](O)[C@H](O)[C@H]2O[C@H]2C[C@](C)(N)[C@H](O)[C@H](C)O2)Oc2ccc(cc2Cl)[C@H]1O` the concentration was 2.7 ± 0.9 µM (E-AB sensor; male C57BL/6J mice, hippocampus; intravenous, 35 mg/kg, 4 h).
`NC/C(=C\F)COc1cccc(Cn2c(=S)[nH]c(=O)c3[nH]cnc32)c1` has a concentration of 131 ng/mL (C57BL/6J mice, heart; oral, 15 mg/kg single, 1 h).

Some of these lines once more:
Under “structural aberrations per 100 cells”, `COc1cccc(-c2n[nH]c(SCc3ccccn3)n2)c1OC` is recorded as 3 (primary human lymphocytes; 0.25 mg/mL, 3 h, together with: rat liver S9).
With `CN(C(=O)n1cnc(-c2cccnc2)c1)[C@H]1CC[C@H](O)CC1` the concentration was 35.3 ± 5.3 ng/g (Wistar rat, medulla oblongata; oral, 10 mg/kg/day of BIA 10-2474, 4 h, repeated 5 days).
For `O=C(N[C@H](Cc1c[nH]c2ccccc12)C(=O)Nc1ccncc1)c1ccc(-c2cc(C(F)(F)F)ccc2F)cc1F`, the concentration was 6.37 µM (Swiss Webster mouse, female, muscle; oral, 50 mg/kg, 2 h, 20% Kolliphor vehicle).
